{"data": "Earlier results that unrelated publications cite", "B1": "CCL1; sequence looked up; chain KSMQVPFSRCCFSFAEQEIPLRAILCYRNTSSICSNEGLIFKLKRGKEACALDTVGWVQRHRKMLRHCPSKRK", "note": "Lines come from different studies, so protocols differ. Numbers after ± are the reported error."}
{"Substance": "coproporphyrin I", "system": "healthy volunteers", "setting": "median", "quantity": "basal serum level", "result": "0.7 nM"}
{"Substance": "pegcetacoplan", "system": "cynomolgus monkey", "setting": "subcutaneous, 140 mg/kg/day, day 28", "quantity": "Cmax", "result": "4180 µg/mL"}
{"Substance": "MNTTSNMIHRAVQQKRISFRAAKLTVLFLFKRRLLRRLLRHREN", "target or system": "Escherichia coli", "system": "peptide", "quantity": "MIC", "result": "12.5 µM"}
{"Substance": "ALILTLVS", "assay": "isocratic RP-HPLC, C18 column", "system": "peptide, water/acetonitrile, 0.1% TFA", "setting": "25 °C", "quantity": "retention coefficient S", "result": 13.5}
{"Substance": "[18F]AlF-NOTA-octreotide", "system": "rat, naive, bone", "setting": "2 h post-injection, 46", "quantity": "SUVmean", "result": "0.45 ± 0.03"}
{"Substance": "LHQLAFDTYQEFEEAYIPK", "assay": "isocratic RP-HPLC, C18 column", "system": "peptide, water/acetonitrile, 0.1% TFA", "setting": "25 °C", "quantity": "retention coefficient S", "result": 27.6}
{"Substance": "colistin", "system": "aqueous solution", "setting": "37 °C", "quantity": "stability time", "result": "120 h"}
{"Substance": "ivermectin", "quantity": "logP", "result": 6.22}
{"Substance": "teicoplanin", "system": "human", "setting": "oral", "quantity": "oral bioavailability", "result": "< 1%"}
{"Substance": "octreotide", "system": "human", "setting": "oral, 20 mg, permeation-enhancing capsules", "quantity": "oral bioavailability", "result": "~0.7%"}
{"Substance": "LLGSLSLDAFR", "assay": "isocratic RP-HPLC, C18 column", "system": "peptide, water/acetonitrile, 0.1% TFA", "setting": "25 °C", "quantity": "retention coefficient S", "result": 17.4}
{"Substance": "SVIWRKLFFIFIKRSGNWIKKVEKRQNLL", "target or system": "Pseudomonas aeruginosa", "system": "peptide, ATCC 15692", "quantity": "MIC", "result": "1 µM"}
{"Substance": "LAGSASADAFR", "assay": "isocratic RP-HPLC, C18 column", "system": "peptide, water/acetonitrile, 0.1% TFA", "setting": "25 °C", "quantity": "retention coefficient S", "result": 19.5}
{"Substance": "B1 (CCL1)", "target or system": "CCR8 S110A mutant", "assay": "IP accumulation, agonist", "quantity": "EC50", "result": "1.6 nM"}
{"Substance": "DWLKAFYDKVAEKLKEAF", "system": "peptide, egg PC-water interface", "setting": "lipid affinity", "quantity": "surface pressure", "result": "30 dyn/cm"}
{"Substance": "Teicoplanin", "system": "healthy volunteers", "quantity": "plasma protein binding", "result": "~90%"}
{"Substance": "pyridoxine", "setting": "basic", "quantity": "pKa", "result": 8.97}
{"Substance": "LLSLLHFR", "assay": "isocratic RP-HPLC, C18 column", "system": "peptide, water/acetonitrile, 0.1% TFA", "setting": "25 °C", "quantity": "retention coefficient S", "result": 16.8}
{"Substance": "teicoplanin", "quantity": "pKa", "result": 2.9}
{"note": "For quick reference, copied from above:"}
{"Substance": "[18F]AlF-NOTA-octreotide", "system": "rat, naive, bone", "setting": "2 h post-injection, 46", "quantity": "SUVmean", "result": "0.45 ± 0.03"}
{"Substance": "LHQLAFDTYQEFEEAYIPK", "assay": "isocratic RP-HPLC, C18 column", "system": "peptide, water/acetonitrile, 0.1% TFA", "setting": "25 °C", "quantity": "retention coefficient S", "result": 27.6}
{"Substance": "colistin", "system": "aqueous solution", "setting": "37 °C", "quantity": "stability time", "result": "120 h"}
